Assay results from different studies.
A part holds a random share of what one study measured.
UniProt Q9NRR2, sequence (whole entry, looked up): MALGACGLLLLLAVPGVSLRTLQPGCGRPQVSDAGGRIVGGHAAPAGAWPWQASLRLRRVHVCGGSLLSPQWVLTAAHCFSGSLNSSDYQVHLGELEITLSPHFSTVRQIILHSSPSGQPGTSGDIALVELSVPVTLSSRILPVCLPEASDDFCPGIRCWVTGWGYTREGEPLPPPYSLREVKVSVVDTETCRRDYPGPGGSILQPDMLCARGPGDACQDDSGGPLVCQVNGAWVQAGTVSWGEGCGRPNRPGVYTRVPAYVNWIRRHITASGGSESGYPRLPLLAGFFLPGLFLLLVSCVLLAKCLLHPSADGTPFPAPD
UniProt P29376, sequence (whole entry, looked up): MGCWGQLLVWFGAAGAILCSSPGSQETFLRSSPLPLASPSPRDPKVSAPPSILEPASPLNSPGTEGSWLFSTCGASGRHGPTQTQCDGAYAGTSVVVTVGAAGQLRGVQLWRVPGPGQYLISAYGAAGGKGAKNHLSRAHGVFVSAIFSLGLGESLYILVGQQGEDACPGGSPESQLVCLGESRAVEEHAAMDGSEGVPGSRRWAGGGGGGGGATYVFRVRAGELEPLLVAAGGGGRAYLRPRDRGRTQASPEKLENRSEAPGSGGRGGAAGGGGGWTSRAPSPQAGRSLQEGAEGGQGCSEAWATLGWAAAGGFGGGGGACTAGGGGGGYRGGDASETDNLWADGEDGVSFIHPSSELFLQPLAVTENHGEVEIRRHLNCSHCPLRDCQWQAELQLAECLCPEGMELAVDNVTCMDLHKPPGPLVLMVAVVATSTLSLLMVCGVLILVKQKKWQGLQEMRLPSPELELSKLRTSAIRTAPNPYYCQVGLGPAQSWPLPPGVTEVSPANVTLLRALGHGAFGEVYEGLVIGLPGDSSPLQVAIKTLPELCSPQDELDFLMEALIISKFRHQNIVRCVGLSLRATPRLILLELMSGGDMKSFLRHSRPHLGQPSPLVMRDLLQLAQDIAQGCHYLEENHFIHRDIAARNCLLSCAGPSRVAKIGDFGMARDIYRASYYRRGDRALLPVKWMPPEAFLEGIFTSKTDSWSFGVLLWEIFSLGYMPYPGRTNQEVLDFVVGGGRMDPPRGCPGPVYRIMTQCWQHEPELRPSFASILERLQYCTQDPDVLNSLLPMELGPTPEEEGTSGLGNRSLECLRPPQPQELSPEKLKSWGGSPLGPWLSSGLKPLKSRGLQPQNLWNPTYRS

Block 1
Target: HLA class I histocompatibility antigen, A alpha chain, allele A*80:01 (Homo sapiens, UniProt P04439)
Observed: peptide-MHC binding
Molecule type: peptide
Tested at: concentration not given
For `FGAAVSLLF`, binding read “inactive”.
Under binding, `FAAPHRGVA` is recorded as “inactive”.
Under binding, `FIVEHINAM` is recorded as “inactive”.
For `ELLDHLLLF`, binding read “inactive”.
`DSPATLSAY` — result for binding: “inactive”.
`SQAFNTPAL`: binding “inactive”.
Under binding, `DEWECTRDD` is recorded as “inactive”.
`WHTTKGAAL` — result for binding: “inactive”.

Block 2
Target: UBE2D3 UBC core domain (UniProt P61077)
Method: yeast two-hybrid
Sample: yeast
Notes: mostly zero background
Relative to: not given
Reading: higher = stronger interaction
B1: DTX4 RING domain (UniProt Q9Y2E6); chain QKVRHPPDEDCTICMERLTAPSGYKGPQPTVKPDLVGKLSRCGHVYHIYCLVAMYNNGNKDGSLQCPTCKTIYGVKTGTQ
B2: MKRN1 RING domain (UniProt Q9UHC7); chain FAVQRSKDMVCGICMEVVYEKANPSERRFGILSNCNHTYCLKCIRKWRSAKQFESKIIKSCPECRITSNFVIPSE
B3: SH3RF2 RING domain (UniProt Q8TEC5); chain DDLTLLDLLECPVCFEKLDVTAKVLPCQHTFCKPCLQRVFKAHKELRCPECRTPVFSNIEAL
B4: TRIM4 RING domain (UniProt Q9C037); chain EAEDIQEELTCPICLDYFQDPVSIECGHNFCRGCLHRNWAPGGGPFPCPECRHPSAPAALRP
B5: TRIM5 RING domain (UniProt Q9C035); chain ILVNVKEEVTCPICLELLTQPLSLDCGHSFCQACLTANHKKSMLDKGESSCPVCRISYQPENIRP
B6: TRIM24 RING domain (UniProt O15164); chain EAARLNLLDTCAVCHQNIQSRAPKLLPCLHSFCQRCLPAPQRYLMLPAPMLGSAETPPPVPAPGSPVSGSSPFATQVGVIRCPVCSQECAERHII
Residues (chain): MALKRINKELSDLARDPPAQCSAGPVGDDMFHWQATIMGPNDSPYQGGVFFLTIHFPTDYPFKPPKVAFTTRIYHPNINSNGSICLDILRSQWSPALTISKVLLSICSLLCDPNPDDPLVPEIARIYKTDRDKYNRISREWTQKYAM
Under “lacZ reporter activity”, `B1 (DTX4 RING domain)` is recorded as 0.
`B2 (MKRN1 RING domain)`: “lacZ reporter activity” 0.
For `B3 (SH3RF2 RING domain)`, “lacZ reporter activity” read 0.
`B4 (TRIM4 RING domain)` — result for “lacZ reporter activity”: 0.
Under “lacZ reporter activity”, `FQGDVDEDLICPICSGVLEEPVQAPHCEHAFCNACITQWFSQQQTCPVDRSVVTVAHLRP (RNF41 RING domain (UniProt Q9H4P4))` is recorded as 0.
For `B5 (TRIM5 RING domain)`, “lacZ reporter activity” read 0.
`B6 (TRIM24 RING domain)` — result for “lacZ reporter activity”: 0.
`QVDKAVFHMQSVKCLKCQEQKRAVLPCQHAALCELCAEGSECPICQPGRAHTLQS (UNK RING domain (UniProt Q9C0B0))` — result for “lacZ reporter activity”: 0.

Further values, each from its own experiment
`CC(C)n1cnc2c(Nc3cccc(Cl)c3)nc(NCCO)nc21` gave a remaining activity of 85.3% (LTK (Homo sapiens, UniProt P29376); enzyme activity, inhibitor, radiometric; 0.5 µM).
`N=C(N)c1ccc2cc(OC(=O)c3ccc(N=C(N)N)cc3)ccc2c1` has an IC50 of less than 508 pM (Tryptase gamma (Homo sapiens, UniProt Q9NRR2)).

For quick reference, copied from above (block 1):
Under binding, `FAAPHRGVA` is recorded as “inactive”.
Under binding, `FIVEHINAM` is recorded as “inactive”.
